Measured values gathered from unrelated publications.
Compare with care: the assays were run in different laboratories. ± marks the error that the study gave.
CYP1A2: Cytochrome P450 1A2 (CYP1A2, Homo sapiens, UniProt P05177)
Sequence of UniProt P05177 (whole entry, looked up): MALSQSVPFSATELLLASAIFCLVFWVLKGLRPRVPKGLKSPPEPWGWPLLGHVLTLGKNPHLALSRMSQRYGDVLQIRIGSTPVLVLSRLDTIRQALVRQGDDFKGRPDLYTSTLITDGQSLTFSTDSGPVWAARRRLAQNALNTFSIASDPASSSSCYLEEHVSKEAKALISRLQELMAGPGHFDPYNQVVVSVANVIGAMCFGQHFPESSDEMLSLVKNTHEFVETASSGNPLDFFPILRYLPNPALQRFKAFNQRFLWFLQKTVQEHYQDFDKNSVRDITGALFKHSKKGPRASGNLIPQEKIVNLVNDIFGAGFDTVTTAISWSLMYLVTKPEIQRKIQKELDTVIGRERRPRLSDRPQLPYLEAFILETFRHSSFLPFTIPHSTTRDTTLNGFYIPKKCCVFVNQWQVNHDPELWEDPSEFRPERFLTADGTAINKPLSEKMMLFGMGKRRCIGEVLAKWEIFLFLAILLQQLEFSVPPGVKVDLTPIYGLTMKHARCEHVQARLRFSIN
PROK: Proteinase K (PROK, Engyodontium album, UniProt P06873)
Sequence of UniProt P06873 (whole entry, looked up): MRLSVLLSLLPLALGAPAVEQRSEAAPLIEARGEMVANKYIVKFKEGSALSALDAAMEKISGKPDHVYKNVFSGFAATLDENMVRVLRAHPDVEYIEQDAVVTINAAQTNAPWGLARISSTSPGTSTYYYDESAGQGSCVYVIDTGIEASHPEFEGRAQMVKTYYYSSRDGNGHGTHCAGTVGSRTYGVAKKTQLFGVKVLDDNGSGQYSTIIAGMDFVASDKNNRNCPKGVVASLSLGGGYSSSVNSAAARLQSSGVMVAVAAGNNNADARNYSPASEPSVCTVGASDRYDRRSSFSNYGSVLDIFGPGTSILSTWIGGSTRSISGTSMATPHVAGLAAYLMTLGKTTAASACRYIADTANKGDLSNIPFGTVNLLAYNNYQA
CYP2E1: Cytochrome P450 2E1 (CYP2E1, Homo sapiens, UniProt P05181)
Sequence of UniProt P05181 (whole entry, looked up): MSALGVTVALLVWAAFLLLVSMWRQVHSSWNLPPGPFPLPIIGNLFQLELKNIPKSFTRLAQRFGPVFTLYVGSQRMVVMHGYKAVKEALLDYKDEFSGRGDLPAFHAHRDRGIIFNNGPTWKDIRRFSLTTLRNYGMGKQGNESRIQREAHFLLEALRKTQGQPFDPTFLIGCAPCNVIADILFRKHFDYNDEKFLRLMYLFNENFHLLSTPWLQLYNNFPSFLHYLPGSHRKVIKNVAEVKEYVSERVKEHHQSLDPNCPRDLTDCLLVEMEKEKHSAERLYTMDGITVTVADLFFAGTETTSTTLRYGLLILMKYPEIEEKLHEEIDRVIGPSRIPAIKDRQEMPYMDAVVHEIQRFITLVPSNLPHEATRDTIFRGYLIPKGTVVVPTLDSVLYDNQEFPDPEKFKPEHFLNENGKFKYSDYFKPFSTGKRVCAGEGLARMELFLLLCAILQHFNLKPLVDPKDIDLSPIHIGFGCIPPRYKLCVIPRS
Sequence of UniProt Q14524 (whole entry, looked up): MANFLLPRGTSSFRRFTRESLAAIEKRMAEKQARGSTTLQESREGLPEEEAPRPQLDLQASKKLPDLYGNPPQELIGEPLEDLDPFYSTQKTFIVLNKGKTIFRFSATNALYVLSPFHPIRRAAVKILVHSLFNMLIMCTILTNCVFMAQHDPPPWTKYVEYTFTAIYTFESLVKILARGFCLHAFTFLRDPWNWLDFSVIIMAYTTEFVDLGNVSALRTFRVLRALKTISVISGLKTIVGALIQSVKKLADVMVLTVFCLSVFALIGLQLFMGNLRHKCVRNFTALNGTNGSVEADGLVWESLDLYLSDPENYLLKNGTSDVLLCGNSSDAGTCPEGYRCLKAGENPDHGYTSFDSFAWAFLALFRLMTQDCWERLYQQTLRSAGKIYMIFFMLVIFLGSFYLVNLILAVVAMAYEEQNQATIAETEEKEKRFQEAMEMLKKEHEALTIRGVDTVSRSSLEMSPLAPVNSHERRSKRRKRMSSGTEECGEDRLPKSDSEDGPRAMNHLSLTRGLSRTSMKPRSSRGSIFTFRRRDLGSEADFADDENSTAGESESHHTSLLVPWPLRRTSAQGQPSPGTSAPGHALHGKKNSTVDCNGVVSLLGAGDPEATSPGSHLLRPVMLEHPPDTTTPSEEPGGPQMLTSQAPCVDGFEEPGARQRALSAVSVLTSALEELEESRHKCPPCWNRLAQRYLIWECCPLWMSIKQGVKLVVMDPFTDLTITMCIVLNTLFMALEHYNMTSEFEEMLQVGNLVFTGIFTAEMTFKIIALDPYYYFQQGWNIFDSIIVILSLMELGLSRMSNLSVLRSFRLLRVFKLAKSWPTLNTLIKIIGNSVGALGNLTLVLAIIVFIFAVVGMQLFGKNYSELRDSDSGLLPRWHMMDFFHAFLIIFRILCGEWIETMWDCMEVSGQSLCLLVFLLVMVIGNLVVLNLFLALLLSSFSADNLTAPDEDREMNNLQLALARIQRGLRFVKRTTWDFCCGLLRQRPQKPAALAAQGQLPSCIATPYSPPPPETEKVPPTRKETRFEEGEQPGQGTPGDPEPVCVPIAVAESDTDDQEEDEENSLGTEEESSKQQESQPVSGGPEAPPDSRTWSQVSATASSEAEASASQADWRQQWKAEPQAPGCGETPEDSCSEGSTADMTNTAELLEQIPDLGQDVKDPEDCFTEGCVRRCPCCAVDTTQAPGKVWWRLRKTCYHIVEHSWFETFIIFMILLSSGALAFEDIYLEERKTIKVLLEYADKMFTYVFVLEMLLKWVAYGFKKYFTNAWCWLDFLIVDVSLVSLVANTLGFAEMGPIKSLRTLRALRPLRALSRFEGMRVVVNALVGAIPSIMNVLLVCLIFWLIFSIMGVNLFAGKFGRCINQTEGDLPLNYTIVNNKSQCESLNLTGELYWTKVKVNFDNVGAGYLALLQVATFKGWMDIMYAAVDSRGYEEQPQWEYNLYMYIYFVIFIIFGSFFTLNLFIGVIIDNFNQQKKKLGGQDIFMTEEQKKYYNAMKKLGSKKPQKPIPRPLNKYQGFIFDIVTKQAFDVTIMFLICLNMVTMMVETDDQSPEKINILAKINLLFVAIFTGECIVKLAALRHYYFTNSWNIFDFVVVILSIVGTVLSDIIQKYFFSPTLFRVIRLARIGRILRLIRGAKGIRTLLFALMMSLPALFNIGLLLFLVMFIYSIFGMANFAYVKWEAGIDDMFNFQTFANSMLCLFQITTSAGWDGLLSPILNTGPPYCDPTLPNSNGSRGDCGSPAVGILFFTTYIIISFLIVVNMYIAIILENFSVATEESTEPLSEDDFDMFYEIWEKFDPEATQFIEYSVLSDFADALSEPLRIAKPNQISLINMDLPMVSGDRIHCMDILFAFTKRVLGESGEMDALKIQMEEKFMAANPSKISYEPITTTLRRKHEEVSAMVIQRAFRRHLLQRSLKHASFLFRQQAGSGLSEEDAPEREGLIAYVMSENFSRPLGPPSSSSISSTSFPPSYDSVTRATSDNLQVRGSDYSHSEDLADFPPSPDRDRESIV
Sequence of UniProt P19111 (whole entry, looked up): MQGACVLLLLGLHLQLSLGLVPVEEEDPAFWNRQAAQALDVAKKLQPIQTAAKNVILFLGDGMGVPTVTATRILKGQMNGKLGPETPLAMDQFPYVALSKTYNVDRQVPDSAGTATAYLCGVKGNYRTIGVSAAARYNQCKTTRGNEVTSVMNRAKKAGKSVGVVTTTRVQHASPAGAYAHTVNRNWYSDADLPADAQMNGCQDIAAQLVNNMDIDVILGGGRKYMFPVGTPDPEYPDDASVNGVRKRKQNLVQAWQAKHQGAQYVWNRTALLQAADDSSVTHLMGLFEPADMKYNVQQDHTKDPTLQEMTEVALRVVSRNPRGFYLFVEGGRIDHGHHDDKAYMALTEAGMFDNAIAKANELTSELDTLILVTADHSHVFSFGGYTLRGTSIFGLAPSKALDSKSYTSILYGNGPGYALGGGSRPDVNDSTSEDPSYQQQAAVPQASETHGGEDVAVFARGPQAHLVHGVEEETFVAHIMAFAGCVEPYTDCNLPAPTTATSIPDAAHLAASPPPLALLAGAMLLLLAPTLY

SMILES	target	assay	system	conditions	scale	quantity	value
CC(C)(O)c1ccccc1CC[C@H](c1cccc(/C=C/c2ccc3ccc(Cl)cc3n2)c1)[S+]([O-])CC1(CC(=O)O)CC1 (stereo partly shown)	CYP1A2	inhibitor	human liver microsomes	2 µM, pH 7.4, added: phenacetin		inhibition	6.14%
CC[C@@H]1CN2CCc3c([nH]c4cccc(OC)c34)[C@@H]2C[C@@H]1/C(=C\OC)C(=O)OC	CYP1A2	substrate	recombinant human enzyme	2 µM, 60 min, pH 7.4		remaining substrate	96%
O=C1Cc2cc(CCN3CCN(C4=NS(=O)(=O)c5ccccc54)CC3)c(Cl)cc2N1	CYP1A2	inhibitor	human liver microsomes	10 µM, pH 7.4, added: phenacetin		inhibition	45.6%
C=CC1CN2CCC1CC2C(O)c1c(-c2ccc(N=Nc3ccccc3)cc2)cnc2ccc(OC)cc12 (stereo not shown)	SCN5A (Homo sapiens, UniProt Q14524)	sodium current, blocker, whole-cell patch clamp	HEK-293T	10 µM, pH 7.3, cis isomer use-dependent, added: light 365 nm		inhibition	61.1 ± 4.8%
CC[C@H](C)[C@H](NC(=O)[C@H](Cc1c[nH]cn1)NC(=O)[C@H](CC(N)=O)NC(=O)[C@H](Cc1ccccc1)NC(=O)[C@H](Cc1ccc(O)cc1)NC(=O)[C@H](Cc1ccc(O)cc1)NC(=O)[C@@H](NC(=O)[C@H](CCCNC(=N)N)NC(=O)CNC(=O)[C@H](CO)NC(=O)[C@H](CO)NC(=O)[C@H](CCCNC(=N)N)NC(=O)[C@H](CC(=O)N(CCOCCOCCOCCOC)CCOCCOCCOCCOC)NC(=O)[C@H](CCSC)NC(=O)[C@H](CCCNC(=N)N)NC(=O)[C@H](CCCCN)NC(=O)[C@H](CCC(=O)O)NC(=O)[C@H](Cc1c[nH]c2ccccc12)NC(=O)CNC(=O)[C@@H]1CCCN1C(=O)[C@@H]1CCCN1C(=O)[C@H](CC(C)C)NC(=O)[C@@H](N)CCCCN)C(C)C)C(=O)N[C@H](C(=O)N[C@@H](CC(N)=O)C(=O)N[C@@H](C)C(=O)N[C@@H](CO)C(=O)N[C@@H](CCC(N)=O)C(=O)N[C@@H](Cc1ccccc1)C(=O)N[C@@H](CCC(=O)O)C(=O)N[C@@H](CCCNC(=N)N)C(=O)N1CCC[C@H]1C(=O)N[C@@H](CO)C(=O)NCC(=O)O)[C@@H](C)O	PROK	proteolysis, substrate, HPLC		room temperature	baseline: PEGylated over non-PEGylated variant, negative = more stable	ln rate constant ratio	-2.4 ± 0.3
Cc1cc(Br)c(O)c(Br)c1	CYP2E1	p-nitrophenol hydroxylation, competitive inhibitor, Cheng-Prusoff from IC50		added: p-nitrophenol		Ki	1.8 µM
O=P([O-])([O-])Oc1ccc(-c2cc(=S)ss2)cc1.[Na+].[Na+]	ALPI (Bos taurus, UniProt P19111)	enzymatic hydrolysis, substrate	bovine intestinal mucosa enzyme	300 µM, pH 7.4, 37 °C		half-life	< 0.0833 min
CC[C@H](C)[C@H](NC(=O)[C@H](CC(=O)N(CCOCCOCCOCCOC)CCOCCOCCOCCOC)NC(=O)[C@H](CC(N)=O)NC(=O)[C@H](Cc1ccccc1)NC(=O)[C@H](Cc1ccc(O)cc1)NC(=O)[C@H](Cc1ccc(O)cc1)NC(=O)[C@@H](NC(=O)[C@H](CCCNC(=N)N)NC(=O)CNC(=O)[C@H](CO)NC(=O)[C@H](CO)NC(=O)[C@H](CCCNC(=N)N)NC(=O)[C@H](CO)NC(=O)[C@H](CCSC)NC(=O)[C@H](CCCNC(=N)N)NC(=O)[C@H](CCCCN)NC(=O)[C@H](CCC(=O)O)NC(=O)[C@H](Cc1c[nH]c2ccccc12)NC(=O)CNC(=O)[C@@H]1CCCN1C(=O)[C@@H]1CCCN1C(=O)[C@H](CC(C)C)NC(=O)[C@@H](N)CCCCN)C(C)C)C(=O)N[C@H](C(=O)N[C@@H](CC(N)=O)C(=O)N[C@@H](C)C(=O)N[C@@H](CO)C(=O)N[C@@H](CCC(N)=O)C(=O)N[C@@H](Cc1ccccc1)C(=O)N[C@@H](CCC(=O)O)C(=O)N[C@@H](CCCNC(=N)N)C(=O)N1CCC[C@H]1C(=O)N[C@@H](CO)C(=O)NCC(=O)O)[C@@H](C)O	PROK	proteolysis, substrate, HPLC		room temperature	baseline: PEGylated over non-PEGylated variant, negative = more stable	ln rate constant ratio	1 ± 0.5
[64Cu+2].c1ccc(CNCc2ccc(CN3CCCNCCNCCCNCC3)cc2)nc1	CXCR4		NOD/SCID mouse, U87 and U87-stb-CXCR4 xenografts	iv, 90 min, no blocking dose	baseline: U87-stb-CXCR4 tumour over blood	tumour-to-blood ratio	27.3 ± 2.7
Oc1c(Br)cccc1Br	CYP2E1	p-nitrophenol hydroxylation, noncompetitive inhibitor, calculated from IC50	baculosomes			Ki	29 µM
CC(=O)NCc1cccc(C(=O)Nc2cccc3c(S(=O)(=O)O)cc(C(=O)NCc4cccc(C(=O)Nc5cccc6c(S(=O)(=O)O)cc(C(=O)NCC(=O)N[C@@H](CC(C)C)C(=O)N[C@@H](CCCCN)C(=O)N[C@@H](C)C(=O)NCC(=O)O)nc56)n4)nc23)n1	pronase E	substrate, RP-HPLC		pH 7.5, room temperature		half-life	9 min
CC[C@H](C)[C@@H]1NC(=O)[C@H](C(C)C)NC(=O)[C@H](C(C)C)NC(=O)[C@H](CC(C)C)NC(=O)C[C@@H](C(=O)N[C@@H](Cc2c[nH]c3ccccc23)C(=O)N[C@@H](CC(N)=O)C(=O)N[C@@H](C)C(=O)N2CCC[C@H]2C(=O)NCC(=O)N[C@@H](Cc2c[nH]c3ccccc23)C(=O)N[C@@H](Cc2ccccc2)C(=O)O)NC(=O)[C@H](C)NC(=O)[C@H](CCC(N)=O)NC(=O)[C@H](C(C)C)NC1=O	carboxypeptidase Y			12 h, pH 6.0, 28 °C		proteolytic stability	stable
CC[C@H](C)[C@H](NC(=O)[C@H](Cc1c[nH]cn1)NC(=O)[C@H](CC(N)=O)NC(=O)[C@H](Cc1ccccc1)NC(=O)[C@H](Cc1ccc(O)cc1)NC(=O)[C@H](Cc1ccc(O)cc1)NC(=O)[C@@H](NC(=O)[C@H](CCCNC(=N)N)NC(=O)CNC(=O)[C@H](CO)NC(=O)[C@H](CO)NC(=O)[C@H](CCCNC(=N)N)NC(=O)[C@H](CO)NC(=O)[C@H](CCSC)NC(=O)[C@H](CCCNC(=N)N)NC(=O)[C@H](CCCCN)NC(=O)[C@H](CCC(=O)O)NC(=O)[C@H](Cc1c[nH]c2ccccc12)NC(=O)CNC(=O)[C@@H]1CCCN1C(=O)[C@@H]1CCCN1C(=O)[C@H](CC(C)C)NC(=O)[C@@H](N)CCCCN)C(C)C)C(=O)N[C@@H](CC(=O)N(CCOCCOCCOCCOC)CCOCCOCCOCCOC)C(=O)N[C@@H](CC(N)=O)C(=O)N[C@@H](C)C(=O)N[C@@H](CO)C(=O)N[C@@H](CCC(N)=O)C(=O)N[C@@H](Cc1ccccc1)C(=O)N[C@@H](CCC(=O)O)C(=O)N[C@@H](CCCNC(=N)N)C(=O)N1CCC[C@H]1C(=O)N[C@@H](CO)C(=O)NCC(=O)O	PROK	proteolysis, substrate, HPLC		room temperature	baseline: PEGylated over non-PEGylated variant, negative = more stable	ln rate constant ratio	-2 ± 0.4
CCN(CC)CCOc1ccc(-c2nnn(Cc3ccc(OC)cc3)c2N)cc1	SLC47A1 (Homo sapiens, UniProt Q96FL8)	transporter uptake, inhibitor				IC50	1.3 µM
CC[C@H](C)[C@H](NC(=O)[C@H](Cc1c[nH]cn1)NC(=O)[C@H](CC(N)=O)NC(=O)[C@H](Cc1ccccc1)NC(=O)[C@H](Cc1ccc(O)cc1)NC(=O)[C@H](Cc1ccc(O)cc1)NC(=O)[C@@H](NC(=O)[C@H](CCCNC(=N)N)NC(=O)CNC(=O)[C@H](CO)NC(=O)[C@H](Cc1ccc(OCc2cn(CCOCCOCCOCCOC)nn2)cc1)NC(=O)[C@H](CCCNC(=N)N)NC(=O)[C@H](CO)NC(=O)[C@H](CCSC)NC(=O)[C@H](CCCNC(=N)N)NC(=O)[C@H](CCCCN)NC(=O)[C@H](CCC(=O)O)NC(=O)[C@H](Cc1c[nH]c2ccccc12)NC(=O)CNC(=O)[C@@H]1CCCN1C(=O)[C@@H]1CCCN1C(=O)[C@H](CC(C)C)NC(=O)[C@@H](N)CCCCN)C(C)C)C(=O)N[C@H](C(=O)N[C@@H](CC(N)=O)C(=O)N[C@@H](C)C(=O)N[C@@H](CO)C(=O)N[C@@H](CCC(N)=O)C(=O)N[C@@H](Cc1ccccc1)C(=O)N[C@@H](CCC(=O)O)C(=O)N[C@@H](CCCNC(=N)N)C(=O)N1CCC[C@H]1C(=O)N[C@@H](CO)C(=O)NCC(=O)O)[C@@H](C)O	PROK	proteolysis, substrate, HPLC		room temperature	baseline: PEGylated over non-PEGylated variant, negative = more stable	ln rate constant ratio	0 ± 0.5
CNC(=O)Oc1cc(C)c([S+](C)[O-])c(C)c1 (stereo not shown)	CYP1A2	inhibitor	human liver microsomes	2 µM, pH 7.4, added: phenacetin		inhibition	1.52%

Repeated from above:
SMILES	target	assay	system	conditions	scale	quantity	value
CCN(CC)CCOc1ccc(-c2nnn(Cc3ccc(OC)cc3)c2N)cc1	SLC47A1 (Homo sapiens, UniProt Q96FL8)	transporter uptake, inhibitor				IC50	1.3 µM
